Measurements from different studies.
A part holds a random share of what one study measured. Changes are numbered by the printed parent chain.

Block 1
Target: RNA binding protein fox-1 homolog 2, RRM domain, GST-SBP tag (RBFOX2, Homo sapiens, UniProt O43251-10, residues 100-194)
Method: RNA Bind-n-Seq
Form: RNA
Matrix: in vitro
Tested at: 365 nM
Notes: natural RNA segment, single round, ends assumed
Relative to: no-protein control
Direction: higher = stronger binding
All sequences stand within: GGGAGUUCUACAGUCCGACGAUC … UGGAAUUCUCGGGUGCCAA
Target sequence (chain): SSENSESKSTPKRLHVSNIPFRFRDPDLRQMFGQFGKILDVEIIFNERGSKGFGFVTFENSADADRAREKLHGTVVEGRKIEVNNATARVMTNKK
Strand	RBNS enrichment (R)
CUAAGUUAUUGUCAAAACUGGGCAGGAGACAGGAGAUUGGAGUGGUCUCUGCUGGGGUGUCUGACCCUCCACCACCUCACCUUGUUGGUACCUCCCUCCCUGAAUUCCUG	0.401
CAGAAGGCACGUGAAUGUGUUUGCUUUGGCUUGGAGCUUAUUAAGUUUUGACUACGGUUAAAAUAAGUCAAAUAGUAAGUGGUAAAACACAUUUUUGUUAGUAUUGGAAC	1.23
CCCCAGUGAAGUCGGAGUCUUCCCCUGCUGAUCUGAGCCAAUCCGUAAGAGGACCCGUGAGGACACCAGAGUCUAGCCCAGAAAGCCCGGGAGGGCUGGAGAGCGAGUAC	0.291
UUACUUUACACAUACGUGUAUGUACACACACACACACAAUACAAGACAUUUUUCCUGUUUUAGAAAAUAUAGCCCUUGUUUGGAUUACUGCUGUCUGAGCACUAGAAAUU	0.632
AGACUCCUUGGAUAUUUCCCAAGAACCCCCCACAUACACCCCUCACAAGCCACCCCUCCUGAGAGGCAGGGGGCCCUCCGCCCCCUCCCCAUGUAUUCCCCACCUGUGUU	0.511
UGAGGCCCUGCUGAGCCAGCAAAAUGCUUUCCAGUUCCUCUUUGGCUCUCACGAUGCCCACCUAGGCUUUCUGGCCAGUGUACUGAACAGUGCUACAAGCCCUCAGGAGC	0.206
UAGACUAAAGCACCGGGCGGUCCAGCUGUAGCUGUUCUUCAGUGAGGGUGAGGAUCAGUGUAUUAGAGCAUCUUCGGAGUGUUACCUACCAGUGUUGUCCAGAAGAAGCA	4.37
UUUUAUUUAUGUCCUUGUGACCCAGGUACUUGGGGGGCCAGCUACCCUUCUGGCCUUUUAGCGUCUUUGAAGGAGACCAGACAUGAGUGAAUACCUAGGAGAGUGUCAGC	0.38
CUUGAACCAGGGAGUCAGAGGUUGCGGUGAGCCGACAUCACGCCACUGCACUCCAGCCUGGCAACAGAGCAAGACUCCGUCUCAAAAAAGUGAAAAGAGAUUCAACCAAG	0.347
CUAGUUAAUCGUUAAGUUGACAAUGAGAGAAUUCUCAAGUUCAUACCUGGCAGCAGGCUCCCACUGAUCUUCCCCUUACAGACAGAUAACAGACAUUUCAGUUUUACCGU	0.684
UGGGCUUGUUCUUCAUGCCUAACUUAAUAAUUUUUAAGAGAUUAAAGUGCCAGAUGGAGUUUAAAUAUUGAAAUUAUUUUAAAAGGUAGGUGUCUUUAAGAAAAUAACAA	0.452
UGAGUCCUGUUCUUCCUAUUUCUUUCAGCAGAAAUGAAAUCCCAGGUAAGUAUAAGUAUUCAAGUAUUUGAUCAGUAAGUCACAGUUAUCUCCAGUGCAUUAAAUAACCU	1.62

Block 2
Target: CCNB3, cyclin fold, Cln2 fusion (human)
Method: yeast growth competition, sequencing
Matrix: yeast
Notes: weak parent motif
Relative to: not given
Direction: higher = stronger binding
Parent: SAMHD1 docking peptide (human); ASKSRVQLFKDDP; partner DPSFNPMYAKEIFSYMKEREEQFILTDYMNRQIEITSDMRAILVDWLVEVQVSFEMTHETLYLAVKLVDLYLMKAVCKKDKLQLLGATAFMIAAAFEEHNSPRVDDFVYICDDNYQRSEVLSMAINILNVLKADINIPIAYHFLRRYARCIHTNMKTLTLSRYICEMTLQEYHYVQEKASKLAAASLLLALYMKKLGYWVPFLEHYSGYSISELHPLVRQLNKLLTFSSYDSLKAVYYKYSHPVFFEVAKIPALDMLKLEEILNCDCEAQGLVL
Change	normalised enrichment score
ASKSRWQLFKDDP [V6W]	0.101
ASKSRVQTFKDDP [L8T]	-0.0783
ASKSRVVLFKDDP [Q7V]	0.214
ASKSRVQLFKDIP [D12I]	0.135
ACKSRVQLFKDDP [S2C]	-0.139
ASKHRVQLFKDDP [S4H]	-0.0206
ASKSRVQLQKDDP [F9Q]	-0.112
ASKYRVQLFKDDP [S4Y]	-0.242
ASKSRVQLFVDDP [K10V]	-0.237
ASKSRVQLFKSDP [D11S]	0.601
ASVSRVQLFKDDP [K3V]	-0.182
ASKSRVQHFKDDP [L8H]	-0.33
ASKSRVQLFKDMP [D12M]	-0.0139
AMKSRVQLFKDDP [S2M]	-0.0971
AFKSRVQLFKDDP [S2F]	0.137
ASKSRVQLFKQDP [D11Q]	-0.166

Block 3
Target: RING finger protein unkempt homolog, zinc fingers 1-6, GST-SBP tag (UNK, Homo sapiens, UniProt Q9C0B0, residues 30-357)
Sequence of UniProt Q9C0B0 (30-357, looked up): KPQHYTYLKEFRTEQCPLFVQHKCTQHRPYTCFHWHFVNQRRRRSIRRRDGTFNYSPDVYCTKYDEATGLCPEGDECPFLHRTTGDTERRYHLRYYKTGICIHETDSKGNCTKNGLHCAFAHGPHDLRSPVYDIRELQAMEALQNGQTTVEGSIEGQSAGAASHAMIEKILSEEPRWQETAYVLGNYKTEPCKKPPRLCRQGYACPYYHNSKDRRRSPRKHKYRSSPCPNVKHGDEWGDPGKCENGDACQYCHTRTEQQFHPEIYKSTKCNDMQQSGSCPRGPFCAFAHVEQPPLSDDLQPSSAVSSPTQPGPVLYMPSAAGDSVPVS
Method: RNA Bind-n-Seq
Form: RNA
Matrix: in vitro
Tested at: not given
Notes: RNA with constant flanks, human and mouse sites, ends assumed
Relative to: input RNA pool
Direction: higher = stronger binding
All sequences stand within: GGGAGUUCUACAGUCCGACGAUC … CAACAGAGGAUUGAGCAUCA
Strand	bound/input enrichment [ratio]
UGGUUGCUCCUUUGUCAAACUGGGAUGAAAGCAAUGGCUAUUCCUCUGUUCUUUCAGAUAGUAAUGGGAGCUUUUACUGGCUUACAUCAUUACAAUAUAUGUGAAAAACCACGUGCAAGG	0.213
UUGAAACCUUUGGAUAGGGGAAAAAUUAUAUAUAUAUAUAUUUUUUUGUUCUGUUUGCAUUUCUUAAUUUGUGCUUGGAAUGUGUUGAUGUGCACAGCUAAUGAUUCAAUGCGAGACAAG	0.554
GGCUUUGCUUUACUUUUUUACCUUGAACAACUGCUUGGAGGACCAGAGAUUUUCCUAGGAUUCUUAAAAGCUUAUGUUGAGAAGUUUUCCUAUAAGAGCAUAACUACUGAUGACUGGAAG	0.235
AUUUGGCCCAUCUGAGACCAAUGAAUCCCCUGCAGUUGUGCUAGAACCUCCUGUAGUAUCAAUGGAGGUAUCAGAGCCACACAUCUUAGAAACUCUGAAGCCAGCUACAAAAACUGCAGA	0.509
GGGAAGAAAUUCGGCAGUGAAUGAAGAUUCCUCUGCAUUUUAGCAUUGCUUUUUCUACUGUAGUUGGCUUUUGAAUGAGGAUGACAAUGGAAGAGAUGAAGAAUGAAGCUGAGACCACUU	0.485
GACGACCUGUUCCGCUUCAACAACAUUAACUUGGAUCCACUUACAGAAACUUAUGGGAUUCCUUUCUACCUACAAUACCUCGCCCACUGGCCAGAGUAUUUCAUUGUUGCAGAGGCACCU	0.237
GCUGAAGGAUAUGUUAUCGGCAGCUGUAUUAAACACAUUCCAAUCGCAGGAAGAGAUAUAACAUAUUUUAUUCAGCAACUGCUGCGAGACCGAGAAGUAGGAAUCCCUCCUGAGCAGUCC	0.123
CAAAGUAUGGGAUUUGCGCAAGAAUUACACUGCUUAUCGACAAGAACCCAUAGCAUCCAAGUCUUUCCUGUACCCAGGUACCAGCACUCGAAAGCUAGGAUACUCGAGUUUGGUUUUAGA	0.398
GCCACUCCAUUUGUUCCCAAGCCUAGUACCAAACCUGCCCCUGGGGGCACAGCACCCUUGCCUCCUUGGAAGACCCCUUCUAGCUCCCAGCCACCACCUCAGCCGCAGGCCAAGCCUCAG	0.787
ACUAAGACUGAAUAUGAACCUGAUCGCAAAAAAGGAAAAGCACGUCCUCCCAAGAUAGCCGAGUUCACCGUCAGCAUCACCGAGGGUGUCACCGAGAGGUUUAAGGUCUCCGUGCUGGUC	0.105
GAGAAAGGAGAGAUGCAGGUUGUCCCAGUUUUGGUGCAUCUCCUGUCUGCUAUCAGCAGUGUUAGGCUUUACAUUCCUAAAGACCUUCGGCCGGUGGACAAUAGACAGAGUGUUUUAAAA	0.42

Block 4
Target: UBE2G2 UBC core domain (UniProt P60604)
Sequence of UniProt P60604 (whole entry, looked up): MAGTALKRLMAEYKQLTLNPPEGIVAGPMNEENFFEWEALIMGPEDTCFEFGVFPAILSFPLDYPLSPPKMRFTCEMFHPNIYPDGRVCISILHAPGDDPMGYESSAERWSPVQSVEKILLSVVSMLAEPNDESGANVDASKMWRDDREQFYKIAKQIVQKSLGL
Method: yeast two-hybrid
Matrix: yeast
Notes: mostly zero background
Relative to: not given
Direction: higher = stronger interaction
B1: MAP3K1 RING domain (UniProt Q13233); chain NSIKDEEEQMCPICLLGMLDEESLTVCEDGCRNKLHHHCMSIWAEECRRNREPLICPLCRSKWRSHDFYS
B2: SYTL4 RING domain (UniProt Q96C24); chain RGSQHYSDRTCARCQESLGRLSPKTNTCRGCNHLVCRDCRIQESNGTWRCKVCAKEIELKKAT
B3: DTX2 RING domain (UniProt Q86UW9); chain EELKVPPDEDCIICMEKLSTASGYSDVTDSKAIGSLAVGHLTKCSHAFHLLCLLAMYCNGNKDGSLQCPSCKTIYGEKTGTQ
B4: UBOX5 RING domain (UniProt O94941); chain EQPGSILGPECASCKRVFSPYFKKEPVYQLPCGHLLCRPCLGEKQRSLPMTCTACQRPVASQDVLR
B5: RFWD3 RING domain (UniProt Q6PCD5); chain ASMDEEEGDTCTICLEQWTNAGDHRLSALRCGHLFGYRCISTWLKGQVRKCPQCNKKARHSDIVV
B6: ZMIZ2 RING domain (UniProt Q8NF64); chain GTIPGTPGPNGEDGVEQTAIKVSLKCPITFRRIQLPARGHDCRHIQCFDLESYLQLNCERGTWRCPVCNKTALLEGLEVDQYMLGILIYIQNSDYEEITIDPTCSWK
B7: DZIP3 RING domain (UniProt Q86Y13); chain PDEEEEEEEPCVICHENLSPENLSVLPCAHKFHAQCIRPWLMQQGTCPTCRLHVLLPEEFP
B8: RBCK1 RING domain (UniProt Q9BYM8); chain SLVLNTEPAECPVCYSVLAPGEAVVLRECLHTFCRECLQGTIRNSQEAEVSCPFIDNTYSCSGKLLEREIK
B9: RNF19A RING domain (UniProt Q9NV58); chain ISKQIGDFIECPLCLLRHSKDRFPDIMTCHHRSCVDCLRQYLRIEISESRVNISCPECTERFNPHDIR
Sequence	lacZ reporter activity
KETIKKTTKPCPRCHVPVEKNGGCMHMKCPQPQCRLEWCWNCGCEWNRVCMG (PRKN RING domain (UniProt O60260))	0
B1 (MAP3K1 RING domain)	0
B2 (SYTL4 RING domain)	0
B3 (DTX2 RING domain)	0
B4 (UBOX5 RING domain)	0
YQNEVDDDLVCHICLQPLLQPLDTPCGHTFCYKCLRNFLQEKDFCPLDRKRLHFKLCKK (LNX2 RING domain (UniProt Q8N448))	0
B5 (RFWD3 RING domain)	0
B6 (ZMIZ2 RING domain)	0
B7 (DZIP3 RING domain)	0
B8 (RBCK1 RING domain)	0
B9 (RNF19A RING domain)	0
PEDRESLKSACVVCLSSFKSCVFLECGHVCSCTECYRALPEPKKCPICRQAITRVIPLY (MUL1 RING domain (UniProt Q969V5))	13600

A few entries again (block 4):
Sequence	lacZ reporter activity
B1 (MAP3K1 RING domain)	0
B2 (SYTL4 RING domain)	0
B3 (DTX2 RING domain)	0
